Results of several laboratories.
Numbers after ± are the reported error.
Sequence of UniProt Q9NXA8 (whole entry, unmodified, looked up): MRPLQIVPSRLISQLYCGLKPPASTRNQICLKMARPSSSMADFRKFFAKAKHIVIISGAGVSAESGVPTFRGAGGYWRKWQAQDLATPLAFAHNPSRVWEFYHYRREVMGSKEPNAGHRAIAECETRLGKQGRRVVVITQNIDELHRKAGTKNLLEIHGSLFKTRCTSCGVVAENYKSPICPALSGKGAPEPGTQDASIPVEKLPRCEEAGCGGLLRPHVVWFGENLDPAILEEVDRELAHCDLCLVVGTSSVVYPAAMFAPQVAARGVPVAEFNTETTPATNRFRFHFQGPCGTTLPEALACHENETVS
Sequence of UniProt Q04609 (whole entry, looked up): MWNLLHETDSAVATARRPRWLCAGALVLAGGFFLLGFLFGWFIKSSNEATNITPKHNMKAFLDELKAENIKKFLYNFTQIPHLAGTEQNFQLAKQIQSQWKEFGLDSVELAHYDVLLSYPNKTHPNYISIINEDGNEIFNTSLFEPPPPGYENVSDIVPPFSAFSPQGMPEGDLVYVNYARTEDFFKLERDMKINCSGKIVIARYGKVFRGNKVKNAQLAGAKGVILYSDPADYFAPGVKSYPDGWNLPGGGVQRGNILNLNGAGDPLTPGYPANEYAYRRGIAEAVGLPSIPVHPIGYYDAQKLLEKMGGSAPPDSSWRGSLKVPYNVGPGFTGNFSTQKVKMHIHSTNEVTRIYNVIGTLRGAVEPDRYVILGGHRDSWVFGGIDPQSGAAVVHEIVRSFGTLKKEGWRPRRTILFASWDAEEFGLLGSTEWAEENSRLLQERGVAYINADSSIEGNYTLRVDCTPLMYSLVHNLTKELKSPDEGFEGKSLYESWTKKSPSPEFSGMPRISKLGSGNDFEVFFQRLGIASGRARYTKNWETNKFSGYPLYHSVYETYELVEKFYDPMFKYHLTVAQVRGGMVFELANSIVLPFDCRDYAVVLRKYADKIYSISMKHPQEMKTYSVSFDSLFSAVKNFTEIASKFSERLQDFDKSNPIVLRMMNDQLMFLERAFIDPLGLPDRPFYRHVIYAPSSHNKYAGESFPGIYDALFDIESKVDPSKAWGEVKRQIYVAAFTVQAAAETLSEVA
Sequence of UniProt P63104 (whole entry, looked up): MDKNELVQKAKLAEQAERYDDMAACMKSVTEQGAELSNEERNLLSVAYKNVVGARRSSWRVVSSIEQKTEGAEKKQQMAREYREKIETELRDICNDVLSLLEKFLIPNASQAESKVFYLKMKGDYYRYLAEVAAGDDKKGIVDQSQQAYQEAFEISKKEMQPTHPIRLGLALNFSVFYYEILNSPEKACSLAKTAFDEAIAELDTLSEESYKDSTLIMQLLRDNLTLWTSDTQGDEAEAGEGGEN
Sequence of UniProt P21397 (whole entry, looked up): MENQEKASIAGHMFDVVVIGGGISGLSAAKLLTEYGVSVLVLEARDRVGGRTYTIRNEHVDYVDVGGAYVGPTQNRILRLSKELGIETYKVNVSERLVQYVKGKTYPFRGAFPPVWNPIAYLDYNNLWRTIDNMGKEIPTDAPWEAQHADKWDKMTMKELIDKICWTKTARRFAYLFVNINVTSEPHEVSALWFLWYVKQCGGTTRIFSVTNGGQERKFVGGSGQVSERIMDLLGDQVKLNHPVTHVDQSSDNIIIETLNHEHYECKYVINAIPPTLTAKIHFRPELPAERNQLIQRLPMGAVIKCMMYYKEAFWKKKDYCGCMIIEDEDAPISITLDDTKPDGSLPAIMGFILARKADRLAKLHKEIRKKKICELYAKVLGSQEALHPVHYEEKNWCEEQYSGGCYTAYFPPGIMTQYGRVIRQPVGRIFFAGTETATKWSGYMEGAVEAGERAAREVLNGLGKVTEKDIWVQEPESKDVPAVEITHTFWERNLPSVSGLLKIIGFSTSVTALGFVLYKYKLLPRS
Sequence of UniProt Q9Y294 (whole entry, unmodified, looked up): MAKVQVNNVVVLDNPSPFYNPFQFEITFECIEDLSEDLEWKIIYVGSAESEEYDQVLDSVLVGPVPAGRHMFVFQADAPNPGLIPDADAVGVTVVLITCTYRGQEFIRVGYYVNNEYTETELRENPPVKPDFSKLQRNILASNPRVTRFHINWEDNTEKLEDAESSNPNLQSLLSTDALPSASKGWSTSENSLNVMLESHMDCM
Sequence of UniProt P01024 (whole entry, looked up): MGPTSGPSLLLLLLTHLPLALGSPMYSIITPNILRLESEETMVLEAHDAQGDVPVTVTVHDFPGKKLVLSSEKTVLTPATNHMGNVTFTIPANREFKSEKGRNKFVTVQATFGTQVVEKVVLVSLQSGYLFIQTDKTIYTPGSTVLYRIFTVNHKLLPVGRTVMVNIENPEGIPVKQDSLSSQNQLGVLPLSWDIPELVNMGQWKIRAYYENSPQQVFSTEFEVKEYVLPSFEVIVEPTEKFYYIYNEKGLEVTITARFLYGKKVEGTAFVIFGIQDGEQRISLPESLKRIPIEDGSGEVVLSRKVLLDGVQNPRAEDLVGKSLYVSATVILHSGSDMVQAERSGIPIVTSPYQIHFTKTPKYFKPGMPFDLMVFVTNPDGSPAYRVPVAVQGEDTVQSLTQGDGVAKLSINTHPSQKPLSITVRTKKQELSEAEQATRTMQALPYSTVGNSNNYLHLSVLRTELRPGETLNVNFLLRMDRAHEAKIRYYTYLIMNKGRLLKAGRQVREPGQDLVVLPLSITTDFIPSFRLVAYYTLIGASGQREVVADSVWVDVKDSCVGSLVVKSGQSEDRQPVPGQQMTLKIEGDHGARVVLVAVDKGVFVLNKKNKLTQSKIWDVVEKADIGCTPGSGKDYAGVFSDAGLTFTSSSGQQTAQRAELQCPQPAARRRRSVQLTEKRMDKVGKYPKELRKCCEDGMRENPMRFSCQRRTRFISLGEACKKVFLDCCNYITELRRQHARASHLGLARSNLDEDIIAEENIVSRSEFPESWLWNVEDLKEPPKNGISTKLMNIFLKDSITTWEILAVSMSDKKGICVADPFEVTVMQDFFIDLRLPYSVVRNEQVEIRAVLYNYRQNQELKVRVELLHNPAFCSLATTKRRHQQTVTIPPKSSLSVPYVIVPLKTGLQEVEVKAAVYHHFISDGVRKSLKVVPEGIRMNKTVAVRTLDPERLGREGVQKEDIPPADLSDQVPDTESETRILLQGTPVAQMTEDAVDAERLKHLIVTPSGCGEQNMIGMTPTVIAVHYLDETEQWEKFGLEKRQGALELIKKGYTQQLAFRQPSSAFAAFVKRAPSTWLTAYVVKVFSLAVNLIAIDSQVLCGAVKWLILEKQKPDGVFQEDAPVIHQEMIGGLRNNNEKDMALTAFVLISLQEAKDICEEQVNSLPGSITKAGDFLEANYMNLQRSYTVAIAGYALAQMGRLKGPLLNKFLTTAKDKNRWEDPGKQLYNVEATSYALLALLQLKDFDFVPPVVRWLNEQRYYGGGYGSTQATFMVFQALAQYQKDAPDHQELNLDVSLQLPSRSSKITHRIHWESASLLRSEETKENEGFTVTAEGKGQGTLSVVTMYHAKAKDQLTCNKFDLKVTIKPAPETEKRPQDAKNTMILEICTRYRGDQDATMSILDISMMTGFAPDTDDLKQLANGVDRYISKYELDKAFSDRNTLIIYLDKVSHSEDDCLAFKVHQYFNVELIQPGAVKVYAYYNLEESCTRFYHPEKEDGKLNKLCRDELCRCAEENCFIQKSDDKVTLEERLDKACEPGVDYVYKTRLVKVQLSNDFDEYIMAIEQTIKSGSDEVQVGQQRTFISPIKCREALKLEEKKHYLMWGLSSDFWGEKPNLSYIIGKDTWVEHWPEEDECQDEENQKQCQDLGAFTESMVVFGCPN

Compound	target	assay	test system	setting	how to read	quantity	value
CCOC(=O)C1=CN([C@@H]2O[C@H](CO)[C@@H](O)[C@H]2O)C=CC1	SIRT5 (Homo sapiens, UniProt Q9NXA8, W222A)	desuccinylase activity, activator	–	concentration not given	–	activation	1.5 fold
O=C([O-])CN1CCN(CC(=O)[O-])CCN(C(CCC(=O)NCCCCCN(CCCC[C@H](NC(=O)N[C@@H](CCC(=O)O)C(=O)O)C(=O)O)C(=O)c2ccc(I)cc2)C(=O)O)CCN(CC(=O)[O-])CC1.[68Ga+3] (some centres unmarked)	FOLH1 (Homo sapiens, UniProt Q04609)	PET/CT	human, liver metastasis	–	reference: normal liver	tumour-to-background ratio	2.2
CC[C@H](C)[C@H](NC(=O)[C@H](CCCNC(=N)N)NC(=O)NC[C@H](CCC(N)=O)NC(=O)NC[C@H](CC(C)C)NC(=O)NC[C@H](CCCNC(=N)N)NC(=O)NC[C@H](C)NC(=O)[C@H](CCCCN)NC(=O)[C@H](CCC(=O)O)NC(C)=O)C(=O)N[C@@H](C)C(N)=O	Histone chaperone ASF1A (Homo sapiens, UniProt Q9Y294)	isothermal titration calorimetry	–	pH 7.5, 20 °C	–	-TΔS	-4.7 ± 0.5 kcal/mol
CC[C@H](C)[C@H](NC(=O)[C@H](CCCNC(=N)N)NC(=O)[C@H](CCCCN)NC(=O)[C@@H](NC(=O)[C@H](C)NC(=O)[C@H](CCCNC(=N)N)NC(=O)[C@H](CCC(N)=O)NC(=O)[C@H](CO)NC(=O)[C@H](CCCCN)NC(=O)[C@H](CC(N)=O)NC(=O)[C@@H](N)CCCNC(=N)N)[C@@H](C)O)C(=O)N[C@@H](COP(=O)(O)O)C(=O)N[C@@H](Cc1c[nH]cn1)C(=O)N[C@@H](CCSC)C(=O)N1CCC[C@H]1C(=O)N[C@@H](CO)C(=O)N[C@@H](CCCNC(=N)N)C(=O)N1CCC[C@H]1C(=O)N[C@@H](CCC(=O)O)C(=O)N[C@@H](CC(C)C)C(=O)N[C@@H](CO)C(=O)N[C@@H](C)C(=O)N[C@H](C(=O)N[C@@H](C)C(=O)N[C@H](C(=O)N[C@@H](CC(=O)O)C(=O)N[C@@H](CC(C)C)C(=O)N[C@@H](CCCNC(=N)N)C(=O)N[C@@H](CCCCN)C(=O)N[C@@H](CC(=O)O)C(=O)N[C@@H](CCCCN)C(=O)N[C@@H](C)C(=O)N[C@@H](CCCCN)C(=O)N[C@@H](COP(=O)(O)O)C(=O)N[C@@H](CS)C(=O)OC)[C@@H](C)O)C(C)C	YWHAZ (Homo sapiens, UniProt P63104)	binding, stopped-flow fluorescence polarization	–	–	–	kon	5.75e+07 M⁻¹ s⁻¹
OC[C@H]1O[C@@H](Oc2ccc(OCc3cn([C@H]4[C@H](O)[C@@H](O)[C@H](c5cn([C@H]6[C@H](O)[C@@H](O)[C@H](n7cc(COc8ccc(O[C@@H]9O[C@H](CO)[C@H](O)[C@H](O)[C@H]9O)cc8)nn7)O[C@@H]6CO)nn5)O[C@@H]4CO)nn3)cc2)[C@H](O)[C@@H](O)[C@H]1O	lecA (Pseudomonas aeruginosa, UniProt Q05097)	isothermal titration calorimetry	–	25 °C	–	ΔG	-9.6 ± 0.1 kcal/mol
CC[C@H](C)[C@H](NC(=O)[C@@H]1CSSC[C@H](NC(=O)[C@@H](NC(C)=O)[C@@H](C)CC)C(=O)N[C@@H](C(C)C)C(=O)N[C@@H](Cc2cn(C)c3ccccc23)C(=O)N[C@@H](CCC(N)=O)C(=O)N[C@@H](CC(=O)O)C(=O)N[C@@H](Cc2c[nH]c3ccccc23)C(=O)NCC(=O)N[C@@H](C)C(=O)N[C@@H](Cc2c[nH]cn2)C(=O)N[C@@H](CCCNC(=N)N)C(=O)N1)C(N)=O	Complement C3, C3b fragment (Homo sapiens, UniProt P01024)	SPR	–	25 °C	reference: [Trp(Me)4]-Ac-compstatin	relative KD	1.1
NC[C@@H]1O[C@H](O[C@H]2[C@@H](O)[C@H](O[C@@H]3[C@@H](O)[C@H](N)C[C@H](N)[C@H]3O[C@H]3O[C@H](CN)[C@@H](O)[C@H](O)[C@H]3N)O[C@@H]2CO)[C@H](N)[C@@H](O)[C@@H]1O	poly(dA)·2poly(dT) triplex	ITC	–	concentration not given, pH 5.5, 20 °C, KCl 140 mM	–	binding enthalpy	-1.31 ± 0.02 kcal/mol
Cc1ccc2c(c1)/C(=N/N=C/c1cccc(OCc3ccccc3)c1)C(=O)N2	MAOA (Homo sapiens, UniProt P21397)	enzyme activity, inhibitor	–	10 µM	–	remaining activity	65.2%

Some of these lines once more:
Compound	target	assay	test system	setting	how to read	quantity	value
CCOC(=O)C1=CN([C@@H]2O[C@H](CO)[C@@H](O)[C@H]2O)C=CC1	SIRT5 (Homo sapiens, UniProt Q9NXA8, W222A)	desuccinylase activity, activator	–	concentration not given	–	activation	1.5 fold
